Measurements collected from several papers.
Protocols differ between the studies behind these lines. ± gives the spread as reported.

SMILES	test	test system	conditions	tissue uptake
Cc1cc(C)n(CCN(CCN)CCCCCCNC(=O)[C@@H](N)Cc2c[nH]c3ccccc23)n1.[99Tc+].[C-]#[O+].[C-]#[O+].[C-]#[O+]		BALB/c nude mice, A549 xenograft, stomach	intravenous, 15 min	5.3 ± 1.91 %IA/g
CCCC[C@H](NC(=O)CNC(=O)CNC(=O)[C@H](CCCCNC(=O)[C@H](CC(=O)O)NC(=O)C(C)c1ccc(CC(C)C)cc1)NC(=O)CN1CCN(CC(=O)O)CCN(CC(=O)O)CCN(CC(=O)O)CC1)C(=O)N[C@H]1CC(=O)NCCCC[C@@H](C(N)=O)NC(=O)[C@H](Cc2c[nH]c3ccccc23)NC(=O)[C@H](CCCNC(=N)N)NC(=O)[C@@H](Cc2ccccc2)NC(=O)[C@H](Cc2c[nH]cn2)NC1=O (stereo partly shown) [lutetium-177 labelled]		C57 mice, tumour-bearing, pancreas	intravenous, 0.037 MBq, 0.5 h	1.14 ± 0.18 %ID/g
CCCC[C@H](NC(=O)COCCOCCNC(=O)CN1CCN(CC(=O)O)CCN(CC(=O)O)CC1)C(=O)N[C@H]1CC(=O)NCCCC[C@@H](C(N)=O)NC(=O)[C@H](Cc2c[nH]c3ccccc23)NC(=O)[C@H](CCCNC(=N)N)NC(=O)[C@@H](Cc2ccccc2)NC(=O)[C@H](Cc2c[nH]cn2)NC1=O [fluorine-18 labelled]		C57 mice, B16/F10 melanoma, heart	intravenous, 1 h, together with: NDP-MSH 10 µg	0.11 ± 0.12 %ID/g
O=C(NCC1OC2CCC=CCCC2O1)c1ccc([18F])nc1 (stereo not shown)		healthy female BALB/c nude mice, pancreas	intravenous, 7.4 MBq per mouse, 2 min	4.6 ± 0.9 %ID/g
CCCC[C@H](NC(=O)CCCCCCCNC(=O)CN1CCN(CC(=O)O)CCN(CC(=O)O)CC1)C(=O)N[C@H]1CC(=O)NCCCC[C@@H](C(N)=O)NC(=O)[C@H](Cc2c[nH]c3ccccc23)NC(=O)[C@H](CCCNC(=N)N)NC(=O)[C@@H](Cc2ccccc2)NC(=O)[C@H](Cc2c[nH]cn2)NC1=O [fluorine-18 labelled]		C57 mice B16-F10 melanoma, brain	intravenous, 0.37 MBq, 2 h	0.05 ± 0.01 %ID/g
CC(C)C[C@H](NC(=O)[C@@H](CCCCNC(=O)[C@@H](Cc1ccccc1)NC(=O)CCCCCCCNC(=O)CN1CCN(CC(=O)O)CCN(CC(=O)O)CCN(CC(=O)O)CC1)NC(=O)[C@H](Cc1ccc(O)cc1)NC(=O)[C@H](CO)NC(=O)[C@H](Cc1c[nH]c2ccccc12)NC(=O)[C@H](Cc1c[nH]cn1)NC(=O)[C@@H]1CCC(=O)N1)C(=O)N[C@@H](CCCNC(=N)N)C(=O)N1CCC[C@H]1C(=O)NCC(N)=O [indium-111 labelled]	biodistribution	male athymic nude mice, DU-145 prostate cancer xenograft, muscle	intravenous, 0.037 MBq, 4 h post-injection	0.15 ± 0.07 %ID/g
COc1ccc2c(c1)C(C)(C)C(/C=C/C1=C(Oc3ccc(C(=O)NCCCCOc4cc(CN(Cc5ccccn5)Cc5ccccn5)cc(CN(Cc5ccccn5)Cc5ccccn5)c4)cc3)C(=C/C=C3/N(CCCCS(=O)(=O)[O-])c4ccc(OC)cc4C3(C)C)CCC1)=[N+]2CCCCS(=O)(=O)[O-].O=[N+]([O-])[O-].O=[N+]([O-])[O-].[99Tc+].[C-]#[O+].[C-]#[O+].[C-]#[O+].[Zn+2]		healthy BALB/c mice, gall bladder	12 h	15.6 %ID/g
O=C(NCC1OC2CCC=CCCC2O1)c1ccc(COCCOCCOCC[18F])cc1 (stereo not shown)		healthy female BALB/c nude mice, small intestine	intravenous, 7.4 MBq per mouse, 120 min	2.9 ± 0.1 %ID/g
COc1ccc(Nc2nc(Nc3ccc(OCCOCC[18F])cc3)ncc2Br)cc1		ICR mice, S180 tumour, kidney	intravenous, 30 min, together with: PF-562271 33 mg/kg oral 1 h before	5.83 ± 0.68 %ID/g
Cc1cc(C)n(CCN(CCN)CCCCCCNC(=O)[C@@H](N)Cc2c[nH]cn2)n1.[99Tc+].[C-]#[O+].[C-]#[O+].[C-]#[O+]		BALB/c nude mice MCF7 xenograft, blood	intravenous, 4 h	0.24 ± 0.13 %ID/g

Some of these lines once more:
SMILES	test	test system	conditions	tissue uptake
Cc1cc(C)n(CCN(CCN)CCCCCCNC(=O)[C@@H](N)Cc2c[nH]c3ccccc23)n1.[99Tc+].[C-]#[O+].[C-]#[O+].[C-]#[O+]		BALB/c nude mice, A549 xenograft, stomach	intravenous, 15 min	5.3 ± 1.91 %IA/g
